Results pooled from the literature.
Protocols differ between the studies behind these lines. Numbers after ± are the reported error.
Cell line: Vero

O=c1nc(N2CCC(Oc3ccccc3Br)CC2)sc2c([N+](=O)[O-])cc(C(F)(F)F)cc12
CC50 (cell growth or viability): > 10 µM

CCOC(=O)CNC(=O)CN1C(=O)S/C(=C\c2ccc(C)cc2)C1=O
CC50 (cell growth or viability, resazurin; 72 h): > 100 µM

CCCCCCSc1cccc(O)c(=O)c1O
CC50 (cell growth or viability, MTS; 24 h): > 100 µM

CN(C)CCNC(=O)/C=C/C(Cc1ccccc1)Nc1ccnc2cc(Cl)ccc12 (centres unmarked)
CC50 (cell growth or viability, MTS; 48 h): 33.6 µM

COc1ccc(Nc2c(C#N)cnc3ccc(Cl)cc23)cc1
CC50 (resazurin; 72 h, 10% FBS, no heme): > 100 µM

Cc1nn(-c2cccc(C(=O)NC(C)C)c2)c(=O)c2nn(-c3ccccc3)c(C)c12
CC50 (cell growth or viability): 436 µM

O=c1c(O)c(SCc2ccccc2)ccc(SCc2ccccc2)c1O
CC50 (cell growth or viability, MTS; 24 h): > 100 µM

CC(=O)Nc1cccc(Cn2nc(C)c3c(C)n(-c4ccccc4)nc3c2=O)c1
CC50 (cell growth or viability): 361 µM

CCOC(=O)C(CC)NC(=O)CN1C(=O)S/C(=C\c2ccc(OC)cc2)C1=O (centres unmarked)
CC50 (cell growth or viability, resazurin; 72 h): > 100 µM

Oc1cc(O)cc(Oc2c(O)cc(O)c3c2Oc2c(O)cc4oc5c(Oc6cc(O)cc(O)c6)c(O)cc(O)c5c4c2O3)c1
CC50 (cell growth or viability, MTT; 72 h): 579 µM

CCCCCCCCC1=C(CCCCCCC(=O)OC)C1
CC50 (cell growth or viability, MTS; 24 h): > 1000 µM

CCOC(=O)C(CC)NC(=O)CN1C(=O)S/C(=C\c2ccc([N+](=O)[O-])cc2)C1=O (centres unmarked)
CC50 (cell growth or viability, resazurin; 72 h): > 100 µM

Cc1cc(NCCOC(C)C)c2nc(N3CCOC[C@H]3C)cc(=O)n2c1
CC50 (cell growth or viability, CCK-8; 48 h): 196 µM

O=C(C=CC(Cc1ccccc1)Nc1ccnc2cc(Cl)ccc12)NCC(=O)NCc1ccccc1 (centres unmarked)
CC50 (cell growth or viability, MTT; 48 h): 142 µM

Nc1ccc(C(=O)/C=C/c2ccccc2F)cc1
CC50 (cell growth or viability, MTT; 72 h): 157 µM

CC(C)NC(=O)CNC(=O)C=CC(Cc1ccccc1)Nc1ccnc2cc(Cl)ccc12 (centres unmarked)
CC50 (cell growth or viability, MTT; 48 h): 44.9 µM

Cc1cc(NCC(=O)C(C)(C)C)c2nc(N3CCOC[C@H]3C)cc(=O)n2c1
CC50 (cell growth or viability, CCK-8; 48 h): 180 µM

CCOC(=O)C(NC(=O)CN1C(=O)/C(=C/c2ccc3c(c2)OCO3)SC1=S)C(C)C (centres unmarked)
CC50 (cell growth or viability, resazurin; 72 h): 98.6 µM

CCCCCCCCC1=C(C(CCCCCCC(=O)OC)OC)C1 (centres unmarked)
CC50 (cell growth or viability, MTS; 24 h): > 1000 µM

O=C1C(O)=C(I)C(=O)c2ccccc21
CC50 (cell growth or viability): > 100 µM

CC(C)c1cc2c(cc1[N+](=O)[O-])[C@@]1(C)CCC[C@@](C)(CNC(=O)c3ccccc3)[C@@H]1CC2
CC50 (cell growth or viability, MTT; 96 h): 2.56 µM

Cc1nn(Cc2cccc(NC(=O)c3ccccc3)c2)c(=O)c2nn(-c3ccccc3)c(C)c12
CC50 (cell growth or viability): > 1000 µM

CCCCCCCCC1=C(CCCCCCCC(=O)O)C1
CC50 (MTS; 24 h, 2% FBS): 215 ± 15.8 µM

CCOC(=O)C(NC(=O)CN1C(=O)/C(=C/c2ccc([N+](=O)[O-])cc2)SC1=S)C(C)C (centres unmarked)
CC50 (cell growth or viability, resazurin; 72 h): > 100 µM

O=C(C=CC(Cc1ccccc1)Nc1ccnc2cc(Cl)ccc12)NCCN1CCOCC1 (centres unmarked)
CC50 (cell growth or viability, MTT; 48 h): 149 µM

CCCCSc1cccc(O)c(=O)c1O
CC50 (cell growth or viability, MTS; 24 h): > 100 µM

O=c1nc(N2CCC(Oc3c(F)cccc3F)CC2)sc2c([N+](=O)[O-])cc(C(F)(F)F)cc12
CC50 (cell growth or viability): > 10 µM

CN(C)CCNC(=O)C(Cc1ccccc1)Nc1ccnc2cc(Cl)ccc12 (centres unmarked)
CC50 (cell growth or viability, MTT; 48 h): 111 µM

CNC(C)C(=O)NC(C(=O)N1CCC2Oc3ccc(OC)c(c3)C=CNC(=O)C(C(C)C)NC(=O)C21)C(C)C (centres unmarked)
CC50 (cell growth or viability, MTT; 48 h): > 400 µM

O=c1nc(N2CCC(Oc3ccccc3C(F)(F)F)CC2)sc2c([N+](=O)[O-])cc(C(F)(F)F)cc12
CC50 (cell growth or viability): > 10 µM

Cc1ccc(S(=O)(=O)Nn2c3c(cc(-c4nc5ccccc5s4)c2=O)CCCCCC3)cc1
CC50 (cell growth or viability, trypan blue): 300 µg/mL

COc1ccc(-n2nc3c(=O)n(-c4cccc(C(=O)NC(C)C)c4)nc(C)c3c2C)cc1
CC50 (cell growth or viability): 300 µM

For quick reference, copied from above:
CCCCCCCCC1=C(CCCCCCCC(=O)O)C1
CC50 (MTS; 24 h, 2% FBS): 215 ± 15.8 µM

Cc1cc(NCC(=O)C(C)(C)C)c2nc(N3CCOC[C@H]3C)cc(=O)n2c1
CC50 (cell growth or viability, CCK-8; 48 h): 180 µM

CN(C)CCNC(=O)/C=C/C(Cc1ccccc1)Nc1ccnc2cc(Cl)ccc12 (centres unmarked)
CC50 (cell growth or viability, MTS; 48 h): 33.6 µM

CCOC(=O)C(NC(=O)CN1C(=O)/C(=C/c2ccc3c(c2)OCO3)SC1=S)C(C)C (centres unmarked)
CC50 (cell growth or viability, resazurin; 72 h): 98.6 µM

Cc1cc(NCCOC(C)C)c2nc(N3CCOC[C@H]3C)cc(=O)n2c1
CC50 (cell growth or viability, CCK-8; 48 h): 196 µM
